# Assay results pooled from the literature.
# Each numbered part is a random draw from the data of one study; scales do not carry over between parts. Positions count from the first letter of the parent shown.

# Block 1
# Target: Histone acetyltransferase KAT6A, winged helix 1, GST fusion (KAT6A, Homo sapiens, UniProt Q92794, residues 1-85)
# Method: protein binding microarray
# Form: double-stranded DNA, one strand shown
# Matrix: in vitro
# Concentration: not given
# Setting: 8-mer, flanks averaged, mean of 2 arrays, mostly near background
# Baseline: not given
# Direction: higher = stronger binding
# Target sequence (chain): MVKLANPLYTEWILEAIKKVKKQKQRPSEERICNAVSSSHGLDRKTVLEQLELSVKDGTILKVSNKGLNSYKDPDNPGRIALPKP
Sequence,E-score
AAGCTTAC,-0.0727
GTACGCGA,0.179
GACTCACA,-0.272
GAAATGTA,-0.135
ACGAGCTA,-0.0825
ATTTATTG,-0.204
GGGTGCAC,-0.0566
AGCGTAGA,0.159

# Block 2
# Target: Prothrombin, mature alpha-thrombin (F2, Homo sapiens, UniProt P00734)
# Method: aptamer microarray, sandwich
# Form: DNA with 2'F-ANA
# Matrix: in vitro
# Concentration: 200 nM
# Setting: whole 15-mer aptamer, many near background
# With: Cy3 exosite-II aptamer, 400 nM
# Direction: higher = stronger binding
# Sequence: GGTTGGTGTGGTTGG
Modification,mean fluorescence intensity
2'F-ANA at 3 7 8 9 10 11 12,614 a.u.
2'F-ANA at 1 6 8 9 11 12 13 14,66.2 a.u.
2'F-ANA at 1 2 4 5 6 8 9 11 13 14,55.3 a.u.
2'F-ANA at 5 6 9 12 14 15,51.9 a.u.
2'F-ANA at 5 7 8 9 11 14 15,48.9 a.u.
2'F-ANA at 2 6 7 10 12 14 15,90.8 a.u.
2'F-ANA at 2 8 10 14,105 a.u.
2'F-ANA at 1 3 6 9 14 15,76.8 a.u.
2'F-ANA at 1 3 4 9 12 14,78.6 a.u.
2'F-ANA at 3 6 7 9 10 15,423 a.u.

# Block 3
# Target: CCNA1, cyclin fold, Cln2 fusion (human)
# Method: yeast growth competition, sequencing
# Matrix: yeast
# Setting: weak parent motif
# Baseline: not given
# Direction: higher = stronger binding
# Parent: MICAL3 docking peptide (human); LQLRRQLSFSEDS; partner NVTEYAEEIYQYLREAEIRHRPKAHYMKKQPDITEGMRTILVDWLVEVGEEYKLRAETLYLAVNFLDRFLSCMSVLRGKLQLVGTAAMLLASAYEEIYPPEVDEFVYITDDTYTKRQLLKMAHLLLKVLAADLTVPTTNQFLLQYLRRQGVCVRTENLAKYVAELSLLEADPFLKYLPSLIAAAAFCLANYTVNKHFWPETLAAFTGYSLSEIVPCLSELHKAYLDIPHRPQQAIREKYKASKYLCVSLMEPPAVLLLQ
Variant,normalised enrichment score
LQLRRQLSFSEQS [D12Q],0.408
LQLRRQLSFSEHS [D12H],0.372
LQLRRQLTFSEDS [S8T],0.361
LQLRRQLSFSYDS [E11Y],0.398
LSLRRQLSFSEDS [Q2S],0.538
LQLRRQLSRSEDS [F9R],0.244
LQLRRQLSFSENS [D12N],0.71

# Single results of other studies
Molecule,target,assay,system,conditions,how to read,measurement,value
"PhoQ, residues 284 288 289 292 302 303 MLMVEA","PhoP, residues 12 14 15 18 19 NYFTV (Escherichia coli, UniProt P23836)","Sort-seq, refers to: YFP reporter",E. coli,"PhoQ-PhoP variant library, with: 10 µM Mg2+","baseline: high Mg2+ state, higher = stronger signaling",fold induction,8.94

# A few entries again (block 1):
Sequence,E-score
ATTTATTG,-0.204
GGGTGCAC,-0.0566
GAAATGTA,-0.135
GACTCACA,-0.272
